Measured values collected from several papers.
Each numbered part is a random draw from the data of one study; scales do not carry over between parts.
Chain of UniProt O43353 (whole entry, looked up): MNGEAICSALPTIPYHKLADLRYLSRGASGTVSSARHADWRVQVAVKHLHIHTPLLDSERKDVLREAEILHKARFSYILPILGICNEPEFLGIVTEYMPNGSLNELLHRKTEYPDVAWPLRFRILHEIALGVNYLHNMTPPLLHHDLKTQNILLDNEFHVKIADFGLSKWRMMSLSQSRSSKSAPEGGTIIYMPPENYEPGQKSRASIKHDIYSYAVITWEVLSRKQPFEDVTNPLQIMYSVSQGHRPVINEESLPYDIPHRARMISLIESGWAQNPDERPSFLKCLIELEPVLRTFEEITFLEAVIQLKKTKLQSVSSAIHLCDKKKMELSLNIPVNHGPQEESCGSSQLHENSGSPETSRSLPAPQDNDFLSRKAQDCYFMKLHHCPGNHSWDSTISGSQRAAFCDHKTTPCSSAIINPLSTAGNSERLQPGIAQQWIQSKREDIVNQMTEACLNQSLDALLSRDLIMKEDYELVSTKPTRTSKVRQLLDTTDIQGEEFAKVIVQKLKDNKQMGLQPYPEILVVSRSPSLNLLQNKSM
Chain of UniProt P07333 (whole entry, looked up): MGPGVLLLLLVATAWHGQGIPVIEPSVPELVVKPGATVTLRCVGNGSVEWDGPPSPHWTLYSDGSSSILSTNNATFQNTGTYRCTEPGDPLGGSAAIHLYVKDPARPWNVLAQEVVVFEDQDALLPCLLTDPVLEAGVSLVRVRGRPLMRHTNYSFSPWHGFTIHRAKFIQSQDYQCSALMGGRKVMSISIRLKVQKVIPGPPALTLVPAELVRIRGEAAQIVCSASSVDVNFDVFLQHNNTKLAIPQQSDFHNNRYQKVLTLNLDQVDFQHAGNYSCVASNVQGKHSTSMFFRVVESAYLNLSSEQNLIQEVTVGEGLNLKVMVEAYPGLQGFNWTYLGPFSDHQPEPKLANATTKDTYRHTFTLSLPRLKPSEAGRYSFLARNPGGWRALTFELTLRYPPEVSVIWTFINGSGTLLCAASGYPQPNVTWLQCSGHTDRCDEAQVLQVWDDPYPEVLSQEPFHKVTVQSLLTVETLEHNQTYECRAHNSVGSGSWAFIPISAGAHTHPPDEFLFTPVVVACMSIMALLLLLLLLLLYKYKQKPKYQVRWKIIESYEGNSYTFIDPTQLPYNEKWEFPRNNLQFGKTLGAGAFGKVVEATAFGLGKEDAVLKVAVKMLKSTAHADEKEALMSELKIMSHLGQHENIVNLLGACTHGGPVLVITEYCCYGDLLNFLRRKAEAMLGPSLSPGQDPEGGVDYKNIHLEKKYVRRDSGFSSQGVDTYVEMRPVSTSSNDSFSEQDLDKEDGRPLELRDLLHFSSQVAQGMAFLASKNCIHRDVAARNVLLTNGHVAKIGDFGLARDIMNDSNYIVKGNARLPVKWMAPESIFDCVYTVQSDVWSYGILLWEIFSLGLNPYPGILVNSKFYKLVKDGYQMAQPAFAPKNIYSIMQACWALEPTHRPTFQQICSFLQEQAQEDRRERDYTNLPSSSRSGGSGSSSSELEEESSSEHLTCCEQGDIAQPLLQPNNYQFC
Chain of UniProt P42336 (whole entry, unmodified, looked up): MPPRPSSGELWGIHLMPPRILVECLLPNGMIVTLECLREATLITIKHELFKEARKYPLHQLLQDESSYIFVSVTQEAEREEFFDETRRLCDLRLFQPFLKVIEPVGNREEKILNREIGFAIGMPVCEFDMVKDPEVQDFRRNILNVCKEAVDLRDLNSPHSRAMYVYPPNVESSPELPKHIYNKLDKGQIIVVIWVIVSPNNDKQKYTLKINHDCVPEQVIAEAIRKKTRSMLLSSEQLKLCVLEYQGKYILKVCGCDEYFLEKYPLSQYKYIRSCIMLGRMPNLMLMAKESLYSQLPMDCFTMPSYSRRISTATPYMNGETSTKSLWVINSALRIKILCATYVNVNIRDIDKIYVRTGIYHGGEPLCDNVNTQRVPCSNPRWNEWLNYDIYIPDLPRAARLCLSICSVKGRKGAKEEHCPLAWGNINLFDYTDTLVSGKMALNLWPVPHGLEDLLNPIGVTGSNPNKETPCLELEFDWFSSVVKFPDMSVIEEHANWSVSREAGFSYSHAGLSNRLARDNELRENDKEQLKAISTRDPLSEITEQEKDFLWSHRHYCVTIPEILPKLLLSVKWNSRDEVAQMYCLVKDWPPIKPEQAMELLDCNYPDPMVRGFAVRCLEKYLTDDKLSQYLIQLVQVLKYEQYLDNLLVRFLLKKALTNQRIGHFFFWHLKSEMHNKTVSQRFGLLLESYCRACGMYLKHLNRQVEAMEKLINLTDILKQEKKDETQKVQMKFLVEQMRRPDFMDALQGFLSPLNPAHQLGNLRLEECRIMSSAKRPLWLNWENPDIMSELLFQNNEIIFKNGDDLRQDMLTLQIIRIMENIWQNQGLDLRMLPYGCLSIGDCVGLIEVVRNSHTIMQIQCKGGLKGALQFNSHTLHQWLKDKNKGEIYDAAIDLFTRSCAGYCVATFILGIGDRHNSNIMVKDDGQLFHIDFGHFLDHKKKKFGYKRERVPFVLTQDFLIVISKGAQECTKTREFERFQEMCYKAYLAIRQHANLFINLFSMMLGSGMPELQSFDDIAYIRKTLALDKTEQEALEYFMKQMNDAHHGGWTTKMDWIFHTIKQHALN
Chain of UniProt P29317 (whole entry, looked up): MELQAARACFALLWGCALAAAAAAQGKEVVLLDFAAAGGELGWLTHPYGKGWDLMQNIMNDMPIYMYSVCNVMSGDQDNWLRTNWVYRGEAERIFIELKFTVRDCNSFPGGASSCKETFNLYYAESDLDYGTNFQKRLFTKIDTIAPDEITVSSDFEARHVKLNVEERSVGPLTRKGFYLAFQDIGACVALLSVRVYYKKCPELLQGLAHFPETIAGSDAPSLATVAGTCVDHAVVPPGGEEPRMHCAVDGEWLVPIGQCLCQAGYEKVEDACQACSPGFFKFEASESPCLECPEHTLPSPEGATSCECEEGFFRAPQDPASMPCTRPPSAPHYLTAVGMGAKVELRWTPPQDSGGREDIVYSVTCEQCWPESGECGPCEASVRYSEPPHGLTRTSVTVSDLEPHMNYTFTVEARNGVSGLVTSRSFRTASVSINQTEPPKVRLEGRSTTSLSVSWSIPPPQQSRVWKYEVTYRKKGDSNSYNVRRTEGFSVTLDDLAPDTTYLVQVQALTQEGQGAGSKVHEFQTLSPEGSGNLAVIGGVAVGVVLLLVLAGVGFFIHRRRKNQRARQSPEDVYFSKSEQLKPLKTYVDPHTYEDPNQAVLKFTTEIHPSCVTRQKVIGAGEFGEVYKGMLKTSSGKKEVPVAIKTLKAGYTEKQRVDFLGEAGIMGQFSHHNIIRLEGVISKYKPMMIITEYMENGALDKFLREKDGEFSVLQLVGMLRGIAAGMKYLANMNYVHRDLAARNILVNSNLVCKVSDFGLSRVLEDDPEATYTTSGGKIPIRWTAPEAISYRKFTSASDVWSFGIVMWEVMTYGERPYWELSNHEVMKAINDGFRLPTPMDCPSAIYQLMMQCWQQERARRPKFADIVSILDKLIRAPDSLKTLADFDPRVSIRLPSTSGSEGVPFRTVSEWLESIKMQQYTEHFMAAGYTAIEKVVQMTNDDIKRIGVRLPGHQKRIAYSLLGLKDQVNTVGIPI
Chain of UniProt Q9P286 (whole entry, looked up): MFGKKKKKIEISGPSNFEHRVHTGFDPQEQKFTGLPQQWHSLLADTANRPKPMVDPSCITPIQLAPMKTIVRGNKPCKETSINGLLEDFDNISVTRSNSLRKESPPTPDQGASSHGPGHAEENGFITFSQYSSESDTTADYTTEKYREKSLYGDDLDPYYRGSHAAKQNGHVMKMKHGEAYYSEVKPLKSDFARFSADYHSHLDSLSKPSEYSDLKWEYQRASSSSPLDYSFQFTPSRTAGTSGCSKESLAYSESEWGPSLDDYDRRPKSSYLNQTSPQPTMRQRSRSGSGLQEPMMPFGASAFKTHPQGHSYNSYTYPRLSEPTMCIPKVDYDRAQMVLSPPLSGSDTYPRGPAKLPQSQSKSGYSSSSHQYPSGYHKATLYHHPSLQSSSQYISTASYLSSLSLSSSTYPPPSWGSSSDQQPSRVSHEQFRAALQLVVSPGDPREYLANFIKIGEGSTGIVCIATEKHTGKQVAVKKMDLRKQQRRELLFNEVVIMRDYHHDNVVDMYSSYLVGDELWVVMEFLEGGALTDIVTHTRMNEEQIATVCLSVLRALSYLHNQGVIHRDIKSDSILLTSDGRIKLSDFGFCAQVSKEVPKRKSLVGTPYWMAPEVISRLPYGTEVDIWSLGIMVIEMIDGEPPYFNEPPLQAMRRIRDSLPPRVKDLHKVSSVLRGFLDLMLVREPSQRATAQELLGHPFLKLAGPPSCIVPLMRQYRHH

Sample 1 — observed: enzyme activity; action: inhibitor; tested at: 0.5 µM; baseline: control
Target: Mitogen-activated protein kinase 10 (MAPK10, Homo sapiens, UniProt P53779)
Chain of UniProt P53779 (whole entry, looked up): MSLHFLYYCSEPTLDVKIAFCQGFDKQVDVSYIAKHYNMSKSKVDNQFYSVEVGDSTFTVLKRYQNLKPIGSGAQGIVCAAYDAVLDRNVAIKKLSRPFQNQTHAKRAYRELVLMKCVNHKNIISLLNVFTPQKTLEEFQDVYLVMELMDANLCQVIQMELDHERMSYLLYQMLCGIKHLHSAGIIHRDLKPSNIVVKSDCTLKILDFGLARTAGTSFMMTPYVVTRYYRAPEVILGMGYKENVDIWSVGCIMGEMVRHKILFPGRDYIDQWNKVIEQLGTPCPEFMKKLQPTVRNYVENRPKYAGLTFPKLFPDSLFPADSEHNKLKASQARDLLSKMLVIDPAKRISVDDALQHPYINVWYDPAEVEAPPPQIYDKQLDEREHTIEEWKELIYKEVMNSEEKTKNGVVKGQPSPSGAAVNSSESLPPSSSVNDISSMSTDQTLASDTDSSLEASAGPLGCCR
SMILES | remaining activity [%]
COc1cc2ncnc(Nc3ccc(F)c(Cl)c3)c2cc1OCCCN1CCOCC1 | 102
O=C1NC(=O)C(c2cn(CCCO)c3ncccc23)=C1c1cnccn1 | 88
COc1ccc(OC)c2c(=S)c3ccccc3[nH]c12 | 108
Cc1ccc(NC(=O)c2ccc(CN3CCN(C)CC3)cc2)cc1Nc1nc(-c2cccnc2)cs1 | 94.2
COc1ccc(C(=O)Nc2sc3c(c2C(N)=O)CCCC3)cc1OC | 84.5
COc1cc2ncnc(Nc3ccc(Oc4ccccc4)cc3)c2cc1OC | 103
O=C(O)c1ccc2c3c1cccc3c(=O)n1c3ccccc3nc21 | 108
CO[C@H]1C[C@@H]2CC[C@@H](C)[C@@](O)(O2)C(=O)C(=O)N2CCCC[C@H]2C(=O)O[C@H]([C@H](C)C[C@@H]2CC[C@@H](O)[C@H](OC)C2)CC(=O)[C@H](C)/C=C(\C)[C@@H](O)[C@@H](OC)C(=O)[C@H](C)C[C@H](C)/C=C/C=C/C=C/1C | 95.9
O=c1c2ccccc2[nH]c(=S)n1CCN1CCC(=C(c2ccc(F)cc2)c2ccc(F)cc2)CC1 | 76.2
O=C(CCCc1ccc(-c2ccccc2F)cc1)Nc1ccc(O)cc1 | 100
COc1cc2nccc(Oc3ccc(NC(=S)NC(=O)c4ccccc4C)cc3)c2cc1OC | 98.7
N#CC(C#N)=C(N)/C(C#N)=C/c1ccc(O)cc1 | 98.8
CNC(=O)c1cc(Oc2ccc(NC(=O)Nc3ccc(Cl)c(C(F)(F)F)c3)cc2)ccn1 | 94.2
O=C1NC(=O)C(c2cn(CCCn3ccnc3)c3ccccc23)=C1Nc1ccccc1 | 100
CC(C)[C@H](CO)Nc1nc(Nc2cc(N)cc(Cl)c2)c2ncn(C(C)C)c2n1 | 94.6

Sample 2 — method: RNA Bind-n-Seq; form: RNA; medium: in vitro; tested at: 200 nM; setting: whole 134-nt RNA, ends assumed; with: 150 mM KCl; baseline: input library; reading: higher = stronger binding
Target: Fragile X messenger ribonucleoprotein 1, C-terminal low-complexity region (Fmr1, Mus musculus, UniProt P35922)
Constant ends, left off below: GGGAGUUCUACAGUCCGACGAUC … UGGAAUUCUCGGGUGUCAAGG
Strand | log2 enrichment
GCAGUAAGUAAAAACAAAUGGAAAUGCUUCGGAUAGUGGCAGGGGUGGGGGUUGCUAAGGAAAGGGUGGGAUGGGAGUGGGUAAAGAGUU | 0.419
ACCAUGCAGGUGGGCAUCUUUGGGAAGUGGGGCAAGGGGGGGAUAGGAAGGGGGGUAACACUUUGGGAACAGGUGGUCCCAGGUCGUUUC | 0.68
UGGCCCUGGUGUCAUGCGGGGAGGAAGAGGUGGCCUCAUGGAUCGUGGUGGUCCCGGUGGAAUGUUCAGAGGUGGCCGUGGUGGAGACAG | -0.172
UGGGAGGUGGAUUUUGUUUAUUUUUUUAGCUCAUUUCCAGGGGUGGGAAUUUUUUUUUAAGAUGUGUCAUGAAUAAAGUUGUUUUUGAAA | 0.389
UGUGCUACACAUCGUAUGUACCGAAUCGGGGAAAAAGGGGAAAAAAAGGGGAAAAAAAGGGGAAAGUAUUAUGUUACGCCGUUCGGAUCU | -0.168
CCUCAAGUCCUGUGCUACACAUCGUAUGUACCGAAUCGGAGGAAAAAGGUGGAAAGUAUUAUGUUACGCCGUUCGGAUCUGCACUUCCAG | 0.144
CUCAAGUCCUGUGCUACACAUCGUAUGUACCGAAUCGGGCCGGGCCGGCCGGGGAAAGUAUUAUGUUACGCCGUUCGGAUCUGCACUUCC | -0.0929
UUUGCAGAGCAGUCUCUGAUGAAGAAUGCCAUAAAAACAUCGGAGGAGUCAUGGAUUGAACAGCAGAUGCUAGAAGACAAGAAACGGGCC | -1.4

Sample 3 — observed: cell-free assay; method: competition with immobilised ligand; tested at: 1 µM
Structure (SMILES): O=C1CCc2cc(Nc3cc(OC4CCOCC4)c([N+](=O)[O-])cc3Cl)ccc2N1
target | remaining binding [%]
Ankyrin repeat and protein kinase domain-containing protein 1 (ANKK1, Homo sapiens, UniProt Q8NFD2) | 82
Receptor-type tyrosine-protein kinase FLT3 (FLT3, Homo sapiens, UniProt P36888, R834Q) | 87
Glycogen synthase kinase-3 alpha (GSK3A, Homo sapiens, UniProt P49840) | 100
Receptor-interacting serine/threonine-protein kinase 2 (RIPK2, Homo sapiens, UniProt O43353) | 53
Macrophage colony-stimulating factor 1 receptor (CSF1R, Homo sapiens, UniProt P07333) | 96
ALK tyrosine kinase receptor (ALK, Homo sapiens, UniProt Q9UM73) | 82
SRSF protein kinase 3 (SRPK3, Homo sapiens, UniProt Q9UPE1) | 100
Serine/threonine-protein kinase 17B (STK17B, Homo sapiens, UniProt O94768) | 100
Mitogen-activated protein kinase kinase kinase kinase 1 (MAP4K1, Homo sapiens, UniProt Q92918) | 100
Ephrin type-A receptor 2 (EPHA2, Homo sapiens, UniProt P29317) | 75
Mitogen-activated protein kinase kinase kinase kinase 3 (MAP4K3, Homo sapiens, UniProt Q8IVH8) | 91
Phosphatidylinositol 4-kinase beta (PI4KB, Homo sapiens, UniProt Q9UBF8) | 100
Serine/threonine-protein kinase PAK 5 (PAK5, Homo sapiens, UniProt Q9P286) | 100
Phosphatidylinositol 4,5-bisphosphate 3-kinase catalytic subunit alpha isoform (PIK3CA, Homo sapiens, UniProt P42336, E545A) | 100
Ribosomal protein S6 kinase alpha-5, C-terminal kinase domain (RPS6KA5, Homo sapiens, UniProt O75582) | 100

Sample 4 — method: RNA Bind-n-Seq; form: RNA; medium: in vitro; tested at: 20 nM; setting: 6-mer, flanks averaged, single round; with: 150 mM KCl; baseline: input library; reading: higher = stronger binding
Target: TAR DNA-binding protein 43, full length, His tag (TARDBP, Homo sapiens, UniProt Q13148, residues 1-414)
Strand | 6-mer enrichment (R)
UCCGAA | 0.628
GUUCGC | 0.749
ACGAAA | 0.669
GAGCGU | 1.33
UUGAAG | 0.85
AAAGCG | 0.894
UGCUGA | 0.793
GAGAUU | 0.778

Some of these lines once more (sample 1):
SMILES | remaining activity [%]
COc1ccc(C(=O)Nc2sc3c(c2C(N)=O)CCCC3)cc1OC | 84.5
COc1cc2ncnc(Nc3ccc(Oc4ccccc4)cc3)c2cc1OC | 103
O=C(O)c1ccc2c3c1cccc3c(=O)n1c3ccccc3nc21 | 108
CO[C@H]1C[C@@H]2CC[C@@H](C)[C@@](O)(O2)C(=O)C(=O)N2CCCC[C@H]2C(=O)O[C@H]([C@H](C)C[C@@H]2CC[C@@H](O)[C@H](OC)C2)CC(=O)[C@H](C)/C=C(\C)[C@@H](O)[C@@H](OC)C(=O)[C@H](C)C[C@H](C)/C=C/C=C/C=C/1C | 95.9
O=c1c2ccccc2[nH]c(=S)n1CCN1CCC(=C(c2ccc(F)cc2)c2ccc(F)cc2)CC1 | 76.2
O=C(CCCc1ccc(-c2ccccc2F)cc1)Nc1ccc(O)cc1 | 100
COc1cc2nccc(Oc3ccc(NC(=S)NC(=O)c4ccccc4C)cc3)c2cc1OC | 98.7
